Results of several laboratories.
Compare with care: the assays were run in different laboratories.
Organism: Escherichia coli

Compound	assay	system	setting	MIC
O=C(O)CN(CC(=O)O)CP(=O)(O)O	–	VIM-2 producer	32 µg/mL, MIC of meropenem, with: meropenem	0.125 mg/L
CC[C@H](C)[C@H](NC(=O)[C@@H](NC(=O)[C@H](CCCCN)NC(=O)[C@H](CCCCN)NC(=O)[C@@H](NC(=O)[C@H](Cc1c[nH]c2ccccc12)NC(=O)[C@H](CCCCN)NC(=O)[C@H](Cc1c[nH]c2ccccc12)NC(=O)[C@H](CC(C)C)NC(=O)[C@H](CCCCN)NC(=O)[C@H](CCCCN)NC(=O)[C@@H](N)C(C)C)[C@@H](C)CC)C(C)C)C(N)=O	–	–	24 h, 37 °C, Mueller-Hinton broth, human serum 10%	64 µM
C=CCO/N=C(\C(=O)N[C@@H]1C(=O)N(S(=O)(=O)O)[C@H]1C)c1csc(N)n1	agar dilution	CDC 1001728 NDM-1	–	16 mg/L
CCCCCCCCCCCCCC(=O)N[C@@H](Cc1c[nH]c2ccccc12)C(=O)N[C@@H](Cc1c[nH]c2ccccc12)C(=O)N[C@H](C(=O)N[C@@H](Cc1ccccc1)C(=O)N[C@@H](CCCNC(=N)N)C(=O)N[C@H](C(=O)N[C@H](C(=O)N[C@@H](Cc1ccc(O)cc1)C(=O)N1CCC[C@@H]1C(=O)N[C@@H](CCCNC(=N)N)C(=O)N[C@H](C(=O)N[C@H](C(=O)N[C@@H](Cc1ccc(O)cc1)C(=O)N[C@@H](CCCNC(=N)N)C(=O)N[C@@H](CCCNC(=N)N)C(=O)N[C@H](C(=O)N[C@@H](CCCNC(=N)N)C(=O)N[C@@H](Cc1c[nH]c2ccccc12)C(=O)N[C@H](C(=O)NCC(=O)N1CCC[C@H]1C(=O)N[C@@H](CCCCN)C(=O)N[C@@H](CCCCN)C(N)=O)[C@@H](C)O)C(C)C)C(C)C)[C@@H](C)CC)C(C)C)C(C)C)C(C)C	bacterial growth, broth dilution, OD600	DH5α, LB medium	16 h, 37 °C	> 100 µM
CC[C@H](C)[C@H](NC(=O)[C@H](CCCNC(=N)N)NC(=O)[C@H](CO)NC(=O)[C@H](Cc1ccc(O)cc1)NC(=O)[C@@H](NC(=O)[C@@H](NC(=O)[C@H](C)NC(=O)CNC(=O)[C@H](CCCCN)NC(=O)[C@H](CCCCN)NC(=O)CCNC(=O)CCCCCNC(=O)[C@H](CCCNC(=N)N)NC(=O)CCCCCNC(=O)[C@H](CCCNC(=N)N)NC(=O)[C@H](CCCNC(=N)N)NC(=O)CCCCCNC(=O)[C@H](CCCNC(=N)N)NC(=O)[C@H](CCCNC(=N)N)NC(=O)CCCCCNC(=O)[C@H](CCCNC(=N)N)NC(=O)[C@H](CCCNC(=N)N)NC(=O)CCCCCNC(=O)[C@@H](N)CCCNC(=N)N)C(C)C)[C@@H](C)O)C(=O)N[C@@H](CO)C(=O)NCC(=O)N[C@@H](CCC(N)=O)C(=O)N[C@@H](Cc1ccc(O)cc1)C(=O)N[C@@H](CCCCN)C(=O)O	–	ATCC 25922, Mueller-Hinton broth	with: KCl 4.5 mM	6 µM
CC[C@H](C)[C@H](NC(=O)[C@@H]1CCCN1C(=O)CNC(=O)[C@H](CC(C)C)NC(=O)[C@H](CCCCN)NC(=O)[C@H](CCCNC(=N)N)NC(=O)[C@H](Cc1c[nH]c2ccccc12)NC(=O)[C@H](C)NC(=O)[C@H](CC(N)=O)NC(=O)[C@H](CCCCN)NC(=O)[C@H](CC(C)C)NC(=O)[C@H](CCCCN)NC(=O)[C@H](CC(N)=O)NC(=O)[C@H](CCCNC(=N)N)NC(=O)[C@H](C)NC(=O)[C@H](CCCNC(=N)N)NC(=O)[C@H](CCCNC(=N)N)NC(=O)[C@H](Cc1ccccc1)NC(=O)[C@H](Cc1c[nH]c2ccccc12)NC(=O)CN)C(=O)N[C@H](C(=O)NCC(=O)N1CCC[C@H]1C(=O)N[C@@H](CC(C)C)C(=O)N[C@@H](CC(C)C)C(=O)N[C@H](C(=O)N[C@@H](CCCNC(=N)N)C(=O)O)[C@@H](C)O)C(C)C	broth microdilution	K88	–	0.34 log10 µg/mL
CCCC[C@H](NC(=O)[C@H](Cc1ccc(O)cc1)NC(=O)[C@@H]1CCCN1C(=O)[C@@H]1CCCN1C(=O)[C@H](CCCCN)NC(=O)[C@H](CC(=O)O)NC(=O)[C@@H](N)C(C)C)C(=O)N1CCC[C@H]1C(=O)N[C@@H](CCCNC(=N)N)C(=O)N1CCC[C@H]1C(=O)N[C@@H](CCCNC(=N)N)C(=O)N1CCC[C@H]1C(=O)N1CCC[C@H]1C(=O)N[C@@H](CCCNC(=N)N)C(=O)N[C@H](CCCNC(=N)N)C(=O)N[C@H](C(=O)N[C@@H](Cc1ccc(O)cc1)C(=O)N[C@@H](CC(N)=O)C(=O)N[C@H](CCCNC(=N)N)C(N)=O)[C@@H](C)CC	broth microdilution	BW25113	18 h, 37 °C, 25% MHB2	8 mg/L
CC[C@H](C)[C@H](NC(=O)[C@H](C)NC(=O)[C@@H](NC(=O)[C@H](CC(=O)O)NC(=O)[C@H](CCCCN)NC(=O)[C@H](CO)NC(=O)[C@@H](NC(=O)[C@H](CC(N)=O)NC(=O)[C@H](C)NC(=O)[C@@H](NC(=O)[C@H](CCC(=O)O)NC(=O)[C@H](CCCCN)NC(=O)[C@@H](NC(=O)[C@@H](NC(=O)[C@H](Cc1c[nH]cn1)NC(=O)[C@H](CCCCN)NC(=O)[C@@H](NC(=O)[C@H](CCCCN)NC(=O)[C@H](CCCCN)NC(=O)[C@@H](NC(=O)[C@H](CC(C)C)NC(=O)[C@H](CCCCN)NC(=O)[C@H](CC(N)=O)NC(=O)[C@H](Cc1ccccc1)NC(=O)[C@H](CCCNC(=N)N)NC(=O)[C@H](CCCCN)NC(=O)[C@H](CCCNC(=N)N)NC(=O)[C@H](Cc1ccccc1)NC(=O)CN)C(C)C)C(C)C)[C@@H](C)O)[C@@H](C)CC)[C@@H](C)O)C(C)C)C(C)C)C(=O)N[C@H](C(=O)N[C@@H](C)C(=O)NCC(=O)N[C@@H](CO)C(=O)NCC(=O)N[C@H](C(=O)N[C@@H](C)C(=O)N[C@H](C(=O)NCC(=O)N[C@@H](C)C(=O)N[C@@H](C)C(=O)N[C@@H](CCSC)C(N)=O)C(C)C)C(C)C)C(C)C	broth microdilution	RKI 6 A-6, CAMHB with 10% mouse serum	150 mM NaCl	1 mg/L
CC[C@H](C)[C@H](NC(=O)[C@@H](CCCNC(=N)N)NC(=O)[C@H](CCCNC(=N)N)NC(=O)[C@H](CCC(N)=O)NC(=O)[C@H](Cc1c[nH]c2ccccc12)NC(=O)[C@H](CCCNC(=N)N)NC(=O)[C@@H]1CCCN1C(=O)[C@H](CCCNC(=N)N)NC(=O)[C@@H]1CCCN1C(=O)[C@H](CC(C)C)NC(=O)[C@H](Cc1ccc(O)cc1)NC(=O)[C@@H]1CCCN1C(=O)[C@@H]1CCCN1C(=O)[C@H](CCCCN)NC(=O)[C@H](CC(=O)O)NC(=O)[C@@H](N)C(C)C)C(=O)N[C@@H](Cc1ccc(O)cc1)C(=O)N[C@@H](CC(N)=O)C(=O)N[C@H](CCCNC(=N)N)C(N)=O	broth microdilution	MC4100	18 h, 37 °C, 25% MHB2	8 mg/L
CC[C@H](C)[C@H](NC(=O)[C@H](Cc1c[nH]c2ccccc12)NC(=O)[C@H](Cc1ccc(O)cc1)NC(=O)[C@H](CCCCN)NC(=O)[C@H](CC(C)C)NC(=O)[C@@H](N)CO)C(=O)N[C@@H](CCCNC(=N)N)C(=O)N[C@@H](Cc1ccc(O)cc1)C(=O)N[C@@H](CCCCN)C(=O)N[C@@H](CCCNC(=N)N)C(=O)N[C@@H](CCC(N)=O)C(=O)NCC(=O)N[C@@H](C)C(=O)N[C@@H](C)C(=O)N[C@@H](CCCNC(=N)N)C(=O)N[C@@H](Cc1ccccc1)C(N)=O	broth dilution	ATCC 25922, Mueller-Hinton broth	24 h, 37 °C	12.5 µM
CC[C@H](C)[C@H](NC(=O)[C@@H](CCCNC(=N)N)NC(=O)[C@H](CCCNC(=N)N)NC(=O)CNC(=O)[C@H](Cc1c[nH]c2ccccc12)NC(=O)[C@H](CCCNC(=N)N)NC(=O)[C@@H]1CCCN1C(=O)[C@H](CCCNC(=N)N)NC(=O)[C@@H]1CCCN1C(=O)[C@H](CC(C)C)NC(=O)[C@H](Cc1ccc(O)cc1)NC(=O)[C@@H]1CCCN1C(=O)[C@@H]1CCCN1C(=O)[C@H](CCCCN)NC(=O)[C@H](CC(=O)O)NC(=O)[C@@H](N)C(C)C)C(=O)N[C@@H](Cc1ccc(O)cc1)C(=O)N[C@@H](CC(N)=O)C(=O)N[C@H](CCCNC(=N)N)C(N)=O	broth microdilution	ATCC 25922	18 h, 37 °C, 25% MHB2	8 mg/L
CC(C)[C@@H]1NC(=O)[C@@H](CCCNC(=N)N)NC(=O)[C@H]([C@@H](C)O)NC(=O)[C@@H](CCCCN)NC(=O)[C@H](Cc2ccccc2)NC(=O)[C@@H](Cc2ccccc2)NC1=O	–	AR0346, colistin-resistant	with: colistin	> 32 mg/L
CC[C@H](C)[C@H](NC(=O)[C@@H](CCCNC(=N)N)NC(=O)[C@H](CCCNC(=N)N)NC(=O)[C@@H](NC(=O)[C@H](Cc1c[nH]c2ccccc12)NC(=O)[C@H](CCCNC(=N)N)NC(=O)[C@@H]1CCCN1C(=O)[C@H](CCCNC(=N)N)NC(=O)[C@@H]1CCCN1C(=O)[C@H](CC(C)C)NC(=O)[C@H](Cc1ccc(O)cc1)NC(=O)[C@@H]1CCCN1C(=O)[C@@H]1CCCN1C(=O)[C@H](CCCCN)NC(=O)[C@H](CC(=O)O)NC(=O)[C@@H](N)C(C)C)C(C)C)C(=O)N[C@@H](Cc1ccc(O)cc1)C(=O)N[C@@H](CC(N)=O)C(=O)N[C@H](CCCNC(=N)N)C(N)=O	broth microdilution	ATCC 25922	18 h, 37 °C, 25% MHB2	16 mg/L
CC(C)C[C@@H](NC(=O)[C@@H](CC(C)C)NC(=O)[C@@H](CCCCN)NC(=O)[C@@H](CCCCNC(=O)[C@@H](CC(C)C)NC(=O)[C@@H](CC(C)C)NC(=O)[C@@H](CCCCNC(=O)[C@@H](CC(C)C)NC(=O)[C@@H](CCCCN)NC(=O)[C@@H](CCCCNC(=O)[C@@H](CC(C)C)NC(=O)[C@H](N)CCCCN)NC(=O)[C@@H](CC(C)C)NC(=O)[C@H](N)CCCCN)NC(=O)[C@@H](CC(C)C)NC(=O)[C@@H](CCCCN)NC(=O)[C@@H](CCCCNC(=O)[C@@H](CC(C)C)NC(=O)[C@H](N)CCCCN)NC(=O)[C@@H](CC(C)C)NC(=O)[C@H](N)CCCCN)NC(=O)[C@@H](CC(C)C)NC(=O)[C@@H](CC(C)C)NC(=O)[C@@H](CCCCNC(=O)[C@@H](CC(C)C)NC(=O)[C@@H](CCCCN)NC(=O)[C@@H](CCCCNC(=O)[C@@H](CC(C)C)NC(=O)[C@H](N)CCCCN)NC(=O)[C@@H](CC(C)C)NC(=O)[C@H](N)CCCCN)NC(=O)[C@@H](CC(C)C)NC(=O)[C@@H](CCCCN)NC(=O)[C@@H](CCCCNC(=O)[C@@H](CC(C)C)NC(=O)[C@H](N)CCCCN)NC(=O)[C@@H](CC(C)C)NC(=O)[C@H](N)CCCCN)C(N)=O	broth microdilution	Escherichia coli blaOXA-48	20 h, 37 °C	16 mg/L
CC[C@H](C)[C@H](NC(=O)[C@@H](CCCNC(=N)N)NC(=O)[C@H](CCCNC(=N)N)NC(=O)[C@@H]1CCCN1C(=O)[C@@H]1CCCN1C(=O)[C@H](CCCNC(=N)N)NC(=O)[C@@H]1CCCN1C(=O)[C@H](CCCNC(=N)N)NC(=O)[C@@H]1CCCN1C(=O)[C@H](CC(C)C)NC(=O)[C@H](Cc1ccc(O)cc1)NC(=O)[C@@H]1CCCN1C(=O)[C@@H]1CCCN1C(=O)[C@H](CCCCN)NC(=O)[C@H](CC(=O)O)NC(=O)[C@@H](N)C(C)C)C(=O)N[C@@H](Cc1cc(I)c(O)c(I)c1)C(=O)N[C@@H](CC(N)=O)C(=O)N[C@H](CCCNC(=N)N)C(N)=O	broth microdilution	BW25113	18 h, 37 °C, 25% MHB2	16 mg/L
COc1c(NC(=O)c2ccc(NC(=O)[C@H](CC#N)NC(=O)c3ccc(NC(=O)/C(C)=C/c4ccc(O)cc4)cc3)c(OC)c2O)ccc(C(=O)Nc2ccc(C(=O)O)cc2)c1O	–	–	–	0.002 mg/L

Some of these lines once more:
Compound	assay	system	setting	MIC
CC[C@H](C)[C@H](NC(=O)[C@H](CCCNC(=N)N)NC(=O)[C@H](CO)NC(=O)[C@H](Cc1ccc(O)cc1)NC(=O)[C@@H](NC(=O)[C@@H](NC(=O)[C@H](C)NC(=O)CNC(=O)[C@H](CCCCN)NC(=O)[C@H](CCCCN)NC(=O)CCNC(=O)CCCCCNC(=O)[C@H](CCCNC(=N)N)NC(=O)CCCCCNC(=O)[C@H](CCCNC(=N)N)NC(=O)[C@H](CCCNC(=N)N)NC(=O)CCCCCNC(=O)[C@H](CCCNC(=N)N)NC(=O)[C@H](CCCNC(=N)N)NC(=O)CCCCCNC(=O)[C@H](CCCNC(=N)N)NC(=O)[C@H](CCCNC(=N)N)NC(=O)CCCCCNC(=O)[C@@H](N)CCCNC(=N)N)C(C)C)[C@@H](C)O)C(=O)N[C@@H](CO)C(=O)NCC(=O)N[C@@H](CCC(N)=O)C(=O)N[C@@H](Cc1ccc(O)cc1)C(=O)N[C@@H](CCCCN)C(=O)O	–	ATCC 25922, Mueller-Hinton broth	with: KCl 4.5 mM	6 µM
CC[C@H](C)[C@H](NC(=O)[C@@H]1CCCN1C(=O)CNC(=O)[C@H](CC(C)C)NC(=O)[C@H](CCCCN)NC(=O)[C@H](CCCNC(=N)N)NC(=O)[C@H](Cc1c[nH]c2ccccc12)NC(=O)[C@H](C)NC(=O)[C@H](CC(N)=O)NC(=O)[C@H](CCCCN)NC(=O)[C@H](CC(C)C)NC(=O)[C@H](CCCCN)NC(=O)[C@H](CC(N)=O)NC(=O)[C@H](CCCNC(=N)N)NC(=O)[C@H](C)NC(=O)[C@H](CCCNC(=N)N)NC(=O)[C@H](CCCNC(=N)N)NC(=O)[C@H](Cc1ccccc1)NC(=O)[C@H](Cc1c[nH]c2ccccc12)NC(=O)CN)C(=O)N[C@H](C(=O)NCC(=O)N1CCC[C@H]1C(=O)N[C@@H](CC(C)C)C(=O)N[C@@H](CC(C)C)C(=O)N[C@H](C(=O)N[C@@H](CCCNC(=N)N)C(=O)O)[C@@H](C)O)C(C)C	broth microdilution	K88	–	0.34 log10 µg/mL
